Experimental data collected from several papers.
Each numbered part is a random draw from the data of one study; scales do not carry over between parts. Changes are numbered by the printed parent chain.

Block 1
Target: ABI1, truncated, D143A, DHFR fusion (Arabidopsis thaliana)
Technique: DHFR PCA, deep sequencing
Sample: yeast
Notes: methotrexate growth selection, single substitutions
Added: (+)-ABA 0.39 µM
Relative to: wild-type fitted maximum
Direction: higher = stronger binding
Starting sequence: PYL1, truncated, DHFR fusion (Arabidopsis thaliana); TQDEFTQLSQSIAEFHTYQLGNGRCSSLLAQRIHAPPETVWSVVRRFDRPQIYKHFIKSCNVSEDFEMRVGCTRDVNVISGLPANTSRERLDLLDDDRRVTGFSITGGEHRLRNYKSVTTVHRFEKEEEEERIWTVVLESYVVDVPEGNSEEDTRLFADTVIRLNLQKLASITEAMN; partner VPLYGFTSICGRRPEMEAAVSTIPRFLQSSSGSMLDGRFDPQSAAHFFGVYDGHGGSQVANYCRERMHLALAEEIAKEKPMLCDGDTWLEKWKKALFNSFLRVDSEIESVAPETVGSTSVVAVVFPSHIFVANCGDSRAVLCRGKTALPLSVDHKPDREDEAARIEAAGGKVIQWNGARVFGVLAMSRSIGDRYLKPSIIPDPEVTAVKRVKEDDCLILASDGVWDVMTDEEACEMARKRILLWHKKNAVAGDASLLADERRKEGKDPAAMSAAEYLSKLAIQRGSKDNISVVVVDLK
| Variant | relative binding score [%] |
| --- | --- |
| K58E | 7.89 |
| R155V | 19.8 |
| K116P | -16.2 |
| R113M | 41.4 |
| Q19N | 47.7 |
| S26I | -3.61 |
| E127D | 53.9 |
| G108E | -14.1 |
| R99M | 94.1 |
| M68V | 22.8 |
| F124D | 28.6 |
| R24I | 4.29 |
| G107C | 7.95 |
| Y53R | -4.32 |
| A170E | 2.43 |

Block 2
Target: RNA binding protein fox-1 homolog 2, RRM domain, GST-SBP tag (RBFOX2, Homo sapiens, UniProt O43251-10, residues 100-194)
Technique: RNA Bind-n-Seq
Form: RNA
Sample: in vitro
Concentration: 365 nM
Notes: natural RNA segment, single round, ends assumed
Relative to: no-protein control
Direction: higher = stronger binding
Target sequence (chain): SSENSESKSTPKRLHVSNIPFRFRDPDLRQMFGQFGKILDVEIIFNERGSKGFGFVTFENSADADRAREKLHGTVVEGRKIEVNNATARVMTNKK
| Strand | RBNS enrichment (R) |
| --- | --- |
| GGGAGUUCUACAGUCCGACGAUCCUGUGGCUUGUUAGCAUCAGAACCUCUCUGAAGACCAAACUUCCCUGUGUGGCCAGCAGAGGAAGCCUUGAGGAUAGAUCUCGGGUGACGUGGGAUUUUCUAAGCCUGAGUGGAAUUCUCGGGUGCCAA | 0.577 |
| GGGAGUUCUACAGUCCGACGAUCGAUGGUUGUCUUCAUAUAGAGUCACAUGGUUUCUCUUUUUAUGCAGAUAUUUAUAAUCUUCAUCCUAUAUCAGUAGGAAUAACUAUAAGGUGCACUACAAAAAGAUGUAUUGGAAUUCUCGGGUGCCAA | 0.374 |
| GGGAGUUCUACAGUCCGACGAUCCACAAUUACCCUGUAAACUCUCUGUUAGGGCAACCACCACCACCUGUCUUCCAGGACACAUUUUUAGAUACUCUGACAGGCCACUGCAUCUCAGAUUCAGGGGAGAAAAUUGGAAUUCUCGGGUGCCAA | 0.598 |
| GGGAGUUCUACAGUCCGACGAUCUUGGAUUCUAGUUGUGGUUUGAAUGCAGCAGUGUACUCUUGAAGUAAGCAGGCAAGGGUCACUGCAGGCAUGAAGCUUGGAUUGCUUCAGAUGGUUUGCCGUAUCGUUUUUGGAAUUCUCGGGUGCCAA | 3.7 |
| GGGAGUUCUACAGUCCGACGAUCCCGUUCCAUGACAUGCAAGGGGAAGCUCACAGAAGAAGCCCACUGUAACUCAGUGUGAAGCAAGUGUUUGUCCCUGCCCGCUAUCAGCCUACAGAGCAACAUUGUCAUUGUGGAAUUCUCGGGUGCCAA | 0.181 |
| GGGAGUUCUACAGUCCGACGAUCUCCUCCCUGCUUAGAAAGCUACUUUAGAAGCCAUUGUAGCCACAGUGGAAAGUCAAGGUUUGUGUCUUUUCUACUGAGGUCUCAGAAAGAGAGAGAACAUCUCUCCGGACUGGAAUUCUCGGGUGCCAA | 0.727 |
| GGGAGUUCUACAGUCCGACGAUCUCUCAUGUUCUGGCAUCCACAUAAUUCUUGUUUUCUCUGACUUAUAGCUAAAGAAAUUUUUGUGGUUUCUCUGCUUAUGGUUUUGAGUUACUCUUUGUUCAGUAAUGCACUGGAAUUCUCGGGUGCCAA | 0.253 |
| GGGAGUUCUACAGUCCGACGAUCUUACUCCAGCUGCCUCCCAGAUUAAUGCAUAAAGCCAAGGAACUACCCCGCUCCCUGCGCUAUAGGGUCACUUUAAGCUCUGGGGAAAAAGGAGAAAGUGAGAGGAGAGUUGGAAUUCUCGGGUGCCAA | 0.414 |
| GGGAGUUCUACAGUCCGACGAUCUUAAAUGAUUCUUUGUGUACCUUUUCUGUCAUAUUCAGAAACCGUUUUGUGCCUGCUGGGAGUAAUUCCUUUAGCAAUUAAGUAUUUGGUAGCUGAAUAAGGGGUCAGAAUGGAAUUCUCGGGUGCCAA | 0.36 |
| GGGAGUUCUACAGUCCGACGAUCCCGAGCCAGCAGCUGAAGUCUCUUUUUCUUCCUCUCGGCUGGAAGAACAUCAAGAUACCUUUGCGUGGAUCAAGCUUGUGUACUUGACCGUUUUUAUAUUACUUUUGUAAUGGAAUUCUCGGGUGCCAA | 0.339 |
| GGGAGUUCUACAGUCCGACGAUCAGUUGCUCCGUGGGCUCUCUAGGGGCUCUGGGCUCUGCCUGCUGCAGUGUCCUCAGUGAGCUCUCUGAGGAGCAGGCUUUCCAUGUCAGCUAUCUGGAUAUUGGUAUGGCUGGAAUUCUCGGGUGCCAA | 0.422 |
| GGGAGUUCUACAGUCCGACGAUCGAUGACAACUUGGUUUAUGCAUGAAUAUUGCAGUAUUUCCAUAUAGCAAAAUAACAUUUCUACCCAGGAUAAUAGUCACAGUUUUCCAGGGAGGGAAUGAUAUAAUUUUCUGGAAUUCUCGGGUGCCAA | 4.58 |

Block 3
Target: CCNB3, cyclin fold, Cln2 fusion (human)
Technique: yeast growth competition, sequencing
Sample: yeast
Notes: weak parent motif
Relative to: not given
Direction: higher = stronger binding
Starting sequence: GMNC docking peptide (human); KNAKRNLSSEFAN; partner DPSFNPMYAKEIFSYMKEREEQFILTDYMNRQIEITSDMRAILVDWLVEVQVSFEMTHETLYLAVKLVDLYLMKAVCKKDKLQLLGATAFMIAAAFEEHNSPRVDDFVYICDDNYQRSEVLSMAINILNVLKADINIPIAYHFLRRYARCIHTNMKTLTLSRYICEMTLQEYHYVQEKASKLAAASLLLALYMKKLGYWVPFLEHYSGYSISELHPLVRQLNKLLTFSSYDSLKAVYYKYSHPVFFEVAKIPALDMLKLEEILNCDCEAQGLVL
| Variant | normalised enrichment score |
| --- | --- |
| KNAKRNLSSEFQN [A12Q] | 0.117 |
| KNAKRALSSEFAN [N6A] | 0.0508 |
| KNAKRNLSCEFAN [S9C] | 0.476 |
| KNAKRNLSSEFPN [A12P] | 0.167 |
| KNRKRNLSSEFAN [A3R] | 0.0475 |
| KNAKRNMSSEFAN [L7M] | 0.2 |
| KNAKRNLSREFAN [S9R] | 0.761 |
| KNAKRNLSSERAN [F11R] | 0.122 |
| KNAKRNLSSCFAN [E10C] | -0.0147 |
| KNAIRNLSSEFAN [K4I] | 0.0669 |
| KNAKHNLSSEFAN [R5H] | 0.125 |
| KWAKRNLSSEFAN [N2W] | 0.761 |
| KNAKRNASSEFAN [L7A] | 0.5 |
| KNAKRNLSQEFAN [S9Q] | 0.0884 |
| KNAKRNLPSEFAN [S8P] | 0.0837 |
| KNAKRNHSSEFAN [L7H] | 0.228 |
| KNADRNLSSEFAN [K4D] | -0.153 |
| KYAKRNLSSEFAN [N2Y] | 0.27 |
| KNAKYNLSSEFAN [R5Y] | 0.138 |
| KNEKRNLSSEFAN [A3E] | -0.0884 |
| KNAKRNLTSEFAN [S8T] | -0.174 |
| KNAKRNLSSIFAN [E10I] | 0.133 |
| KNAKRLLSSEFAN [N6L] | -0.372 |
| KNAKRNLSKEFAN [S9K] | 0.509 |
| KNHKRNLSSEFAN [A3H] | 0.0999 |

Block 4
Target: CREB3L3, bZIP domain (human)
Technique: DHFR protein complementation
Sample: yeast
Notes: single substitutions, most at no-binding floor
Relative to: wild-type JUN-FOS pair
Direction: higher = stronger binding
Starting sequence: JUN, bZIP domain (human); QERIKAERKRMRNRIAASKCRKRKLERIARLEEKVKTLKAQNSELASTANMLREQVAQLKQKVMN; partner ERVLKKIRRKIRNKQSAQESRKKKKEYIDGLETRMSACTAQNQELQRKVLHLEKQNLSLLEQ
| Variant | binding fitness |
| --- | --- |
| A49N | -1.33 natural log |
| E54I | -1.46 natural log |
| E33P | -1.54 natural log |
| E33V | -1.49 natural log |
| V35H | -1.46 natural log |
| S43G | -1.34 natural log |
| E54G | -1.27 natural log |
| A29Q | -1.6 natural log |
| T48W | -1.39 natural log |
| A49M | -1.33 natural log |
| E44N | -1.53 natural log |
| T48V | -1.44 natural log |
| L38S | -1.5 natural log |
| I28N | -1.51 natural log |
| L31N | -1.15 natural log |

Block 5
Target: Fragile X messenger ribonucleoprotein 1, C-terminal low-complexity region (Fmr1, Mus musculus, UniProt P35922)
Technique: RNA Bind-n-Seq
Form: RNA
Sample: in vitro
Concentration: 200 nM
Notes: whole 134-nt RNA, ends assumed
Added: 150 mM LiCl
Relative to: input library
Direction: higher = stronger binding
Each molecule: 7-deaza-guanosine replaces G
| Strand | log2 enrichment |
| --- | --- |
| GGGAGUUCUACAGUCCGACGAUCAAGUCCUGUGCUACACAUCGUAUGUACCGAAUCGGUUUUUGGGUUUUUGGUUUUUGGAAAGUAUUAUGUUACGCCGUUCGGAUCUGCACUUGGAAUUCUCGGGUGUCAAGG | -1.58 |
| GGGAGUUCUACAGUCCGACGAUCCCCAUGCAGGUGGGCAUCUUUGGGAAGUGGGGCAAGGGGGGGAUAGGGAGGGGGGUAACACUUUGGGAACAGGUGGUCCCAGGUCGUUUCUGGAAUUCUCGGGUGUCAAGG | 1.13 |
| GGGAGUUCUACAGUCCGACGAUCCAAGUCCUGUGCUACACAUCGUAUGUACCGAAUCGGUUUUUGGAAAAAGGAAAGGAAAGUAUUAUGUUACGCCGUUCGGAUCUGCACUUCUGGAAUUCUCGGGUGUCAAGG | -1.53 |
| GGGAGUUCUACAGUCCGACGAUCCCUGUGCUACACAUCGUAUGUACCGAAUCGGGGUUUUUUUGGGGAAAAAGGGGUUUGGGGAAAGUAUUAUGUUACGCCGUUCGGAUCUGCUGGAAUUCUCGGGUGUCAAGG | -2.04 |
| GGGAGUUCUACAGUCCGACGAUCCUCAAGUCCUGUGCUACACAUCGUAUGUACCGAAUCGGGAAGGAAGGGAAGGGAAAGUAUUAUGUUACGCCGUUCGGAUCUGCACUUCCAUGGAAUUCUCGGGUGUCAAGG | -0.448 |
| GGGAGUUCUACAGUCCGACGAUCCCUCAAGUCCUGUGCUACACAUCGUAUGUACCGAAUCGGAAAGGAGGAAAGGAAAGUAUUAUGUUACGCCGUUCGGAUCUGCACUUCCAGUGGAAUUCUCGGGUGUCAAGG | -0.453 |
| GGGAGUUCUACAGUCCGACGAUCCACAGACAACACGCAAAAACACAGACACAGAGGGAAGGGGUUGGGAUGGGGACAGGGUGCACAGCAGGGCGGGGUAGGACCCCAGCCCCUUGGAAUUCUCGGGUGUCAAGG | 1.06 |
| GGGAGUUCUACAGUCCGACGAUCUAACUUUAGAGGAGGAUCUGACGGAUAUGGCAGUGGACGUGGAUUUGGGGAUGGCUAUAAUGGGUAUGGAGGAGGACCUGGAGGUGGCAAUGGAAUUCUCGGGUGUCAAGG | 0.454 |
| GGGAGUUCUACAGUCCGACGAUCUGGCCCUGGUGGCAUGCGGGGAGGAAGAGGUGGCCUCAUGGAUCGUGGUGGUCCCGGUGGAAUGUUCAGAGGUGGCCGUGGAGGAGACAGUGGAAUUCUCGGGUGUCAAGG | -0.366 |
| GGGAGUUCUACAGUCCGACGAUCACCAUGCAGGUGGGCAUCUUUGGGAAGUGGGGCAAGGGGGGGAUAGGGAGGGGGGUAACACUUUAGGAACAGGUGGUCCCAGGUCGUUUCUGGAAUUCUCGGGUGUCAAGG | 1.4 |
| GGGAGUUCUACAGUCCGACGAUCCAAGUCCUGUGCUACACAUCGUAUGUACCGAAUCGGGAAAAAGGGAAAGGGAGGGAAAGUAUUAUGUUACGCCGUUCGGAUCUGCACUUCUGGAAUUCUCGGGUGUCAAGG | -0.337 |

Some of these lines once more (block 3):
| Variant | normalised enrichment score |
| --- | --- |
| KNAKYNLSSEFAN [R5Y] | 0.138 |
| KNAKRNLSSIFAN [E10I] | 0.133 |
| KNAIRNLSSEFAN [K4I] | 0.0669 |
| KNAKRNMSSEFAN [L7M] | 0.2 |
| KNAKRNLSSEFPN [A12P] | 0.167 |
| KNAKRALSSEFAN [N6A] | 0.0508 |
| KNAKRNLSSEFQN [A12Q] | 0.117 |
| KNAKRNLTSEFAN [S8T] | -0.174 |
| KNEKRNLSSEFAN [A3E] | -0.0884 |
